Measured values pooled from the literature.
Each numbered part is a random draw from the data of one study; scales do not carry over between parts. Changes are numbered by the printed parent chain.

Study 1
Target: CCNA1, cyclin fold, Cln2 fusion (human)
Method: yeast growth competition, sequencing
Medium: yeast
Setting: weak parent motif
Reference: not given
Direction: higher = stronger binding
Parent: MASTL docking peptide (human); PMIAKNLMCELDE; partner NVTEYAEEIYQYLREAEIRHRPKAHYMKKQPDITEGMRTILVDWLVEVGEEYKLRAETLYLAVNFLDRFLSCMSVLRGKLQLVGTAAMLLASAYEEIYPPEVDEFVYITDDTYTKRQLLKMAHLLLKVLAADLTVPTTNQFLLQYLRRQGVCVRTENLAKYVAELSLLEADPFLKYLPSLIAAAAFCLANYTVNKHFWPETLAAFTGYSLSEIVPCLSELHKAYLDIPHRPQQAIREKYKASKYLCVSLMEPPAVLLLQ
| Substitution | normalised enrichment score |
| --- | --- |
| I3R | 0.00404 |
| M2D | 0.253 |
| C9M | -0.108 |
| D12H | 0.226 |
| C9N | -0.227 |
| K5C | 0.212 |
| L7G | -0.571 |
| L11C | 0.257 |
| M2K | 0.132 |
| L7D | -0.0634 |
| E10Y | 0.348 |
| I3A | 0.0301 |
| N6R | 0.5 |
| M8K | 0.0176 |
| L7F | -0.0136 |
| A4V | 0.109 |
| L11R | 0.0605 |
| D12Y | -0.393 |
| K5G | -0.15 |
| C9Y | -0.106 |
| M8T | -0.126 |
| I3L | -0.0427 |
| A4W | 0.643 |
| M8W | -0.0564 |
| K5S | -0.344 |

Study 2
Target: ABI1, truncated, D143A, DHFR fusion (Arabidopsis thaliana)
Method: DHFR PCA, deep sequencing
Medium: yeast
Setting: methotrexate growth selection, single substitutions
Added: (+)-ABA 0.032 µM
Reference: wild-type fitted maximum
Direction: higher = stronger binding
Parent: PYL1, truncated, DHFR fusion (Arabidopsis thaliana); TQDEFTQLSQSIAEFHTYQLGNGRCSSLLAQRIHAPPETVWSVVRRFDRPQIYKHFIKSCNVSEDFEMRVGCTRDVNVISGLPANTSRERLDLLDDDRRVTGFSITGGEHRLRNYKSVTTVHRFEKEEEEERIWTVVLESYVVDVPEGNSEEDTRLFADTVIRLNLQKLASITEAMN; partner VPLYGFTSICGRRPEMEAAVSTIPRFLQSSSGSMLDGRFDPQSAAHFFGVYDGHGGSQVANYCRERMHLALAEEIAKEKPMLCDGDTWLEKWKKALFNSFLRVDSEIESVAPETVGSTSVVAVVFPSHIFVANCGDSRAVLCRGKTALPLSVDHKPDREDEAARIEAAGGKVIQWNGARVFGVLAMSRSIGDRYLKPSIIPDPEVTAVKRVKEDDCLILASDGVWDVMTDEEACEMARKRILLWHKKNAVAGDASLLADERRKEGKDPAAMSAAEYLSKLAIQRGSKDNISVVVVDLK
| Substitution | relative binding score [%] |
| --- | --- |
| W41G | -0.309 |
| P146I | 18 |
| E152K | -0.0574 |
| C72R | -1.61 |
| W41L | 2.68 |
| D159M | -6.57 |
| R69M | 9.85 |
| S11M | 17.2 |
| T17W | -5.63 |
| Q7M | 29.7 |
| E147N | 4.92 |
| I172K | -2.78 |
| C72W | 7.97 |
| F103M | 0.613 |
| G148K | -8.52 |
| R98K | 35.7 |
| T173V | 11.6 |
| S63T | 13.6 |
| I172P | -9.04 |

Study 3
Target: Histone acetyltransferase KAT6A, both winged helices, GST fusion (KAT6A, Homo sapiens, UniProt Q92794, residues 1-181)
Method: protein binding microarray
Form: double-stranded DNA, one strand shown
Medium: in vitro
Tested at: not given
Setting: 8-mer, flanks averaged, mean of 2 arrays, mostly near background
Reference: not given
Direction: higher = stronger binding
Residues (chain): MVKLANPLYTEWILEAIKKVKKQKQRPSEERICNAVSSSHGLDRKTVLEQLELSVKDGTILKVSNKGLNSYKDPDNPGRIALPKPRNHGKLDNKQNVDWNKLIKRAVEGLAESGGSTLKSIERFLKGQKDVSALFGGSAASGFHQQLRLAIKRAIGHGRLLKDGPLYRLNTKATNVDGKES
| Oligonucleotide | E-score |
| --- | --- |
| CTATTAAC | -0.0447 |
| CAAGGGGC | -0.0729 |
| TAACGCTA | -0.00989 |
| ACGCCATC | 0.0629 |
| GATCCCAA | -0.154 |
| AGGAGATA | -0.145 |
| GAATTAGA | -0.182 |
| ACCTCCCC | -0.13 |
| ATCCAAGG | -0.0618 |
| ACTCCTGC | -0.183 |
| CGGATTTA | 0.0883 |
| ACTACACT | -0.136 |
| ATCCCTTA | -0.118 |
| CACCACTA | -0.223 |
| GGCCGACA | 0.169 |
| AGGGCGTG | 0.0797 |
| CAAACGGC | 0.166 |
| AGCGAATG | -0.00282 |
| CCCCAACC | -0.126 |
| CACCGGCC | 0.227 |
| TCAAGTGA | -0.21 |
| CATTAATC | -0.0101 |
| AACAATAC | -0.0215 |
| TTCCGAAA | 0.0459 |

Study 4
Target: Sal-like protein 4, full length isoform B (SALL4, Homo sapiens, UniProt Q9UJQ4-2, residues 1-616)
Method: universal PBM
Form: double-stranded DNA, one strand shown
Medium: in vitro
Tested at: not given
Setting: 8-mer, flanks averaged, mean of replicates
Direction: higher = stronger binding
Residues (chain): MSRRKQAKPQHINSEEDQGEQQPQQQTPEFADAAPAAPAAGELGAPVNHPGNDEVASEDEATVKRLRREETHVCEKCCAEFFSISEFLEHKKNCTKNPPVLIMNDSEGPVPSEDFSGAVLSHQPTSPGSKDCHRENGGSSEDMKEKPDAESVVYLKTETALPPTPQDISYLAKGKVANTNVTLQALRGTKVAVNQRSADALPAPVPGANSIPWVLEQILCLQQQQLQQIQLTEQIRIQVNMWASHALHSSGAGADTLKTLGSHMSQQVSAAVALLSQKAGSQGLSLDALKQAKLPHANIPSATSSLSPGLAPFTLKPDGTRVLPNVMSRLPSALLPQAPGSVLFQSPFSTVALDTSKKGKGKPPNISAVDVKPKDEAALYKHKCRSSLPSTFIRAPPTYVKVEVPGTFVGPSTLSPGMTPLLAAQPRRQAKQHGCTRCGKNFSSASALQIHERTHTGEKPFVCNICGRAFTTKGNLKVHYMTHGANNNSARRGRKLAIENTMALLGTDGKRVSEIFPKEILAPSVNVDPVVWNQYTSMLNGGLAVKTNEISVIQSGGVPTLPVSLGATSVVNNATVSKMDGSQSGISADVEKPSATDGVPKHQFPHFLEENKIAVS
| Oligonucleotide | E-score |
| --- | --- |
| CACGCAGG | -0.0624 |
| AGTAACTC | -0.0662 |
| GGAAATGA | 0.136 |
| CATTTCGG | 0.0372 |
| ACGCAGCC | -0.273 |
| ATCTCAGA | -0.0921 |
| GGTAGAAC | -0.158 |
| GCACGGAC | -0.219 |
| GTCGGAGA | -0.118 |
| AGGCTTTG | -0.262 |
| AGAGTCAA | 0.0442 |
| CTTTTGCC | 0.0697 |
| AGTTACGA | 0.106 |
| CTAGGTTC | -0.228 |
| AGCCCCTG | -0.35 |
| CCATTTAC | 0.00119 |
| TATCGGAA | 0.191 |
| ATAGCCAG | -0.0588 |
| ATTCTCCA | 0.143 |
| GTACCTAC | -0.0942 |
| ACGAGTCA | 0.0733 |
| ATGTGCTC | -0.00662 |
| ACCAGTCA | -0.0902 |
| GAGGGCCC | -0.34 |
| ATCAGCCA | -0.205 |

Study 5
Target: RNA binding protein fox-1 homolog 2, RRM domain, GST-SBP tag (RBFOX2, Homo sapiens, UniProt O43251-10, residues 100-194)
Method: RNA Bind-n-Seq
Form: RNA
Medium: in vitro
Tested at: 365 nM
Setting: natural RNA segment, single round, ends assumed
Reference: no-protein control
Direction: higher = stronger binding
Residues (chain): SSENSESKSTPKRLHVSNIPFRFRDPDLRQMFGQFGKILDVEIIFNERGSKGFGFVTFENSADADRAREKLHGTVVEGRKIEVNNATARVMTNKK
| Oligonucleotide | RBNS enrichment (R) |
| --- | --- |
| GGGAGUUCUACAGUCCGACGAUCACCAUGGUGGCAUGGACCACCCUCAUCCAUGCAACUCCAGGCCCCAUGGGAACGGAUGUGGAAGGAAGAACUGUCACCCUCUUAAGGCCCAGGGUCGGAGCCCAGGGCCUUGGAAUUCUCGGGUGCCAA | 0.414 |
| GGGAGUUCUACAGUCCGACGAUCCCCUGUCUUUCAUUGAGCCUUAGCAUUUCCCUCUCAGGCUUCCUCUCAAGCUCAAGGAACUCACCCCCAGAUAAGAAGCUGGUGCCUCUUGUCUCUCUCAUUUCAGAAACUGGAAUUCUCGGGUGCCAA | 0.407 |
| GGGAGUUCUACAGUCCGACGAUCCUUCUUGGGCCCGGUCCACAGGUCCAAGGACACCCUCCCUCCAGGGUCCUCUCUUCCACAGUGGCGGGCCCACUCAGCCCCGAGACCACCCAACCUCACCCUCCUGACCCUGGAAUUCUCGGGUGCCAA | 0.345 |
| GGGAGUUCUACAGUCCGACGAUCAACAGAUGAAACUUUUUGCAUCGCUUGAGUCAUUUUUAUCACAAUAAUCCUACUGUGAAGCUGUCGUUGAGAACUUAGGUUGGCACGUAGCGUCUCAAGGUAUGCGUUCUUGGAAUUCUCGGGUGCCAA | 1.04 |
| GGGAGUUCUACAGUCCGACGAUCAACACACGAGCAAACCCAGAGGUGGAUGUUAUGAACAGCUGUGUCUGCCAAACACAUUUACCCUUUGGCCCCACUUUGAAGGGCAAGAAAUGGCGUCUGCUCUGGUGGCUUGGAAUUCUCGGGUGCCAA | 0.375 |
| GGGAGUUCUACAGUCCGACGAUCUUAUAACUAGUUAGUUAUCACCUCGUCCCUUAAAGUCAGUGACCUCCUGUGUUUGAUGUAUAUUACAUAGAGUCUUAAGUCAGUGUACAGUUCCACUGGAAUUUGACAGUUGGAAUUCUCGGGUGCCAA | 0.528 |
| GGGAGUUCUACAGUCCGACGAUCUACCCAUCCUCCCUUUCUGAACCUUCCCUCAGGGUGGGGCUGGAUUAUGGAGGAAGGAAUGGAUCUUUGGUCAGAUGAGACUAACAGAGGGACUCACUGUCAGAGUUAGCUGGAAUUCUCGGGUGCCAA | 0.181 |
| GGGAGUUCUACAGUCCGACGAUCUAAUUCUAUAGAGAAUUCUUGCCUCCCAUUCAGGACUGGCCUUCUAUACAGUGAGAUGGUCCAGUAAGAAAUAAUUUUUAUUAGUGUUUUUUCUAUUUUGAGAAUUAUUUUGGAAUUCUCGGGUGCCAA | 0.958 |
| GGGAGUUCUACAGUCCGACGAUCUAAUUUUACCUUCACAUUAAUUCAAACCGUGCAAGUAACCACGGGGUCCAUCUUUUACAUCUGGUACACACAACAGACGCUCAGUUGUUCUUAACCACUUUUGUCAUUUGUGGAAUUCUCGGGUGCCAA | 0.563 |
| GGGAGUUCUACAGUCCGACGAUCAAGGAUACAAAAUGCAAAAUCCACAAUUUUGAUAACUGAAAAUUGCCAAUUGUUUUGCAGUACUUUAUUAUAUUGGGUGUCUUGUCUUUUUUGGGCUUUUAGUUAGCUAAUGGAAUUCUCGGGUGCCAA | 0.46 |
| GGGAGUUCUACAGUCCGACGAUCUUCAUGGUGGGCCCUGUGCUCUGUUAAUGAGUCCCUGGCAUGGAUGGAUGAAUACCUGAGUCACCAGCUGAAGUGUCCCUUAUGAGGAAAGAAGAGGCCAGGGACUAGAAUGGAAUUCUCGGGUGCCAA | 1.36 |
| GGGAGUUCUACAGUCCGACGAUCGGGCUACUGUGGUUUAGACACUCCUGCUGCUCACAUUGAUGGGUGGCUAUUAAAGUUUCUUCACCCCUCUGUCUGCCUCUAGCCUGUUUCCCUUGGCCUGGGCAGCCUAUUGGAAUUCUCGGGUGCCAA | 0.377 |

Some of these lines once more (study 2):
| Substitution | relative binding score [%] |
| --- | --- |
| R98K | 35.7 |
| I172P | -9.04 |
| W41L | 2.68 |
| Q7M | 29.7 |
| D159M | -6.57 |
| C72W | 7.97 |
